Measurements from different studies.
Protocols differ between the studies behind these lines. Numbers after ± are the reported error.
FPR1: fMet-Leu-Phe receptor (FPR1, Homo sapiens, UniProt P21462)
Sequence of UniProt P21462 (whole entry, looked up): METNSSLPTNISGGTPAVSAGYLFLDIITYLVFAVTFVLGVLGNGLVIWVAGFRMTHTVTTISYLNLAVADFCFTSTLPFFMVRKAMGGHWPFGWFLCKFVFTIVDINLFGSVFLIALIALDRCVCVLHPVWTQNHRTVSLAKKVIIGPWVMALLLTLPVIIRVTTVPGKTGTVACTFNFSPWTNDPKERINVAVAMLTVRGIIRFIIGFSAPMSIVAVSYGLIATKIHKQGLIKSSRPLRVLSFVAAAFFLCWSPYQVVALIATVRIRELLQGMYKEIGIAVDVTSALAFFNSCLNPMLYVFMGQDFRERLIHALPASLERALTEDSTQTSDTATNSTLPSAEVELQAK
PYL4: PYL4 (Arabidopsis thaliana, UniProt O80920)
Sequence of UniProt O80920 (whole entry, looked up): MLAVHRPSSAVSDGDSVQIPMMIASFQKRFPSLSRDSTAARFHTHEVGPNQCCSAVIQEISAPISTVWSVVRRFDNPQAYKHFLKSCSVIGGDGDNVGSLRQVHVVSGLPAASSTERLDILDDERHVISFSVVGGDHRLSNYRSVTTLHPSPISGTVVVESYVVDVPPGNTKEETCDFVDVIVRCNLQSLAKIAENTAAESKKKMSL
IDE: Insulin-degrading enzyme (IDE, Homo sapiens, UniProt P14735)
Sequence of UniProt Q7RTX0 (whole entry, looked up): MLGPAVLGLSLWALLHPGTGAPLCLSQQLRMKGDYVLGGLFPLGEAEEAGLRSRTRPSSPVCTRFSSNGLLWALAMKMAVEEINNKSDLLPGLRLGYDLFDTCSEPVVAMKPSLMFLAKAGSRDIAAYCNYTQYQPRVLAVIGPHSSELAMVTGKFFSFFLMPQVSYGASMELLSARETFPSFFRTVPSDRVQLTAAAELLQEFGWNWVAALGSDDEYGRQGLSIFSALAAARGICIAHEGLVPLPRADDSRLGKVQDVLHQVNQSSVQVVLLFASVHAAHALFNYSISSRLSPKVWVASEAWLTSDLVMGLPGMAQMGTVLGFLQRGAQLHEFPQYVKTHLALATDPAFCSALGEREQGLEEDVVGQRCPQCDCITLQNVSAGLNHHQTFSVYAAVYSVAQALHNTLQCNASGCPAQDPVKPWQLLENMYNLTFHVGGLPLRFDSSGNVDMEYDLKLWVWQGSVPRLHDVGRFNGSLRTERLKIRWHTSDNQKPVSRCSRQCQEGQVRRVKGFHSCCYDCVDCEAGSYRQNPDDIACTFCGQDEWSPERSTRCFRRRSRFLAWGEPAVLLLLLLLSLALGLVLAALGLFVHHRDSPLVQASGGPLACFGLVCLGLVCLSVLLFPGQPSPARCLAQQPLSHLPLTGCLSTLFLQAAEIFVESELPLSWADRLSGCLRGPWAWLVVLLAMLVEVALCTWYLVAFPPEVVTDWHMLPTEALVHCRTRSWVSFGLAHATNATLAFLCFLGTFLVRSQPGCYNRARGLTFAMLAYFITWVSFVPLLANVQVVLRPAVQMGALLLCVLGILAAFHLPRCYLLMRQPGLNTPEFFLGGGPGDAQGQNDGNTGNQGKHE
Sequence of UniProt Q8TDV5 (whole entry, looked up): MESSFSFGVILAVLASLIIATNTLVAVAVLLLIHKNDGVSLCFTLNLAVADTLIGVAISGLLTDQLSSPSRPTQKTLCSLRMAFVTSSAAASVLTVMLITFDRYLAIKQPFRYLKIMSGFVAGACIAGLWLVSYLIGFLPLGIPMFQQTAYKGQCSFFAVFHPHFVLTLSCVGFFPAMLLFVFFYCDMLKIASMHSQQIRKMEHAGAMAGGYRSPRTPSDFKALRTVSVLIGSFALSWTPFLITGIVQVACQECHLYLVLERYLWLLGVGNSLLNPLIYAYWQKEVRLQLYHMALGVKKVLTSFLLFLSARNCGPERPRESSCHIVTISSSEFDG
Sequence of UniProt P37231 (whole entry, looked up): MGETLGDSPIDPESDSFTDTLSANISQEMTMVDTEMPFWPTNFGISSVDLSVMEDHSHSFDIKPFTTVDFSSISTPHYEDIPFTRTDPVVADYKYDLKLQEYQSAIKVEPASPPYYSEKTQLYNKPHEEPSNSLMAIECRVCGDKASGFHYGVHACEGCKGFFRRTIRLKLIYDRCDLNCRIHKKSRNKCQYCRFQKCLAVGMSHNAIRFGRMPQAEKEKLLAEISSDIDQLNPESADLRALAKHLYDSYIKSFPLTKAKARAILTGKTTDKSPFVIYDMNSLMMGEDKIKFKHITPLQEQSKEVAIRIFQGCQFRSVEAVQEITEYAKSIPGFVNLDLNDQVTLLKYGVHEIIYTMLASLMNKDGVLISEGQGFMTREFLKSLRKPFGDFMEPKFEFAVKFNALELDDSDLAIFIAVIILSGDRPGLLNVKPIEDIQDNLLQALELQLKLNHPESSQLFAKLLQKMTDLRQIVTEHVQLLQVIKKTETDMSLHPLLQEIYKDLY
Sequence of UniProt Q8TE23 (whole entry, looked up): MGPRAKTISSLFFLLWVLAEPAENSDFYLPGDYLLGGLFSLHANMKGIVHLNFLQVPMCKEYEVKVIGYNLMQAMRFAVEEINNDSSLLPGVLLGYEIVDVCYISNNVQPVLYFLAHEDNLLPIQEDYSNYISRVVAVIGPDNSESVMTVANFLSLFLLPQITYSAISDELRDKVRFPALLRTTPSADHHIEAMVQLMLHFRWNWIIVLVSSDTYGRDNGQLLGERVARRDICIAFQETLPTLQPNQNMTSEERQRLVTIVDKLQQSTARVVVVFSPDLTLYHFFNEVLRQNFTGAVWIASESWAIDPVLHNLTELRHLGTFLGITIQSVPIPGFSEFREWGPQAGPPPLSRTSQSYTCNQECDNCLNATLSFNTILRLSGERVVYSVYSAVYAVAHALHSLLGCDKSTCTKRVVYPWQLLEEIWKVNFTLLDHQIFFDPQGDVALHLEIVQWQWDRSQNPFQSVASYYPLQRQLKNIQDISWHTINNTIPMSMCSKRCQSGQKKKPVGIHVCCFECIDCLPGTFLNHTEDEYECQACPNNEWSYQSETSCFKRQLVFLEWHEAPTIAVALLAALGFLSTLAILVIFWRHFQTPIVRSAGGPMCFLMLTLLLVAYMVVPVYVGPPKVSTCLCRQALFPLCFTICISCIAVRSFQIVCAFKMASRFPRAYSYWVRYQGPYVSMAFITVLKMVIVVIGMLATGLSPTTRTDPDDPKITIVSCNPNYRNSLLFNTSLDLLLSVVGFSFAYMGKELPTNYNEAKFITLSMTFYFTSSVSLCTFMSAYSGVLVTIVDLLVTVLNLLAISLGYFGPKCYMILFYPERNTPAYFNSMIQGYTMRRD
Sequence of UniProt Q13258 (whole entry, unmodified, looked up): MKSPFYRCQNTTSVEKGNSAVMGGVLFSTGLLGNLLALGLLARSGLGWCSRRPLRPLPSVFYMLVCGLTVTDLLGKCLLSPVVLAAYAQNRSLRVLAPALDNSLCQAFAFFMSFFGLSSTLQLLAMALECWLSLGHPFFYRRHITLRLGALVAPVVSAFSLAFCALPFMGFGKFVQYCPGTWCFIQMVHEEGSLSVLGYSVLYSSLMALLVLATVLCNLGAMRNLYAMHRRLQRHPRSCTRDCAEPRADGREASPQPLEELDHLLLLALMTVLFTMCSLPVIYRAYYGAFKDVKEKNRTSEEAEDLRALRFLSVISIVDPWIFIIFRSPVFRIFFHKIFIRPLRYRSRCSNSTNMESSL
Sequence of UniProt Q8JZR4 (whole entry, looked up): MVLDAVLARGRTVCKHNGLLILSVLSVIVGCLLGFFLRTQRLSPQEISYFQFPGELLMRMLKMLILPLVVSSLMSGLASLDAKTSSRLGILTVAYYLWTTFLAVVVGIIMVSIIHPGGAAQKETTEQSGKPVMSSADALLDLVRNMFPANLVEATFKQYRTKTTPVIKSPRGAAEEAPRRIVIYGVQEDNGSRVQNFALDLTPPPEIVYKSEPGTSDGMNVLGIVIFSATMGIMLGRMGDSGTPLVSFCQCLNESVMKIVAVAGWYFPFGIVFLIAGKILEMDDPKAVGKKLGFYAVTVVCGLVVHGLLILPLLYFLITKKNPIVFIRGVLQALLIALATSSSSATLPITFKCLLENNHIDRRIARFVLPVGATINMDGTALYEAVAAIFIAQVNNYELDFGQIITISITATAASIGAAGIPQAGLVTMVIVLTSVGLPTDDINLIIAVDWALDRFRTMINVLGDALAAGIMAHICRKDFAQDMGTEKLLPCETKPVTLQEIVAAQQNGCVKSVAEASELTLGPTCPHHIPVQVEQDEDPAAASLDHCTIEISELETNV

SMILES	target or system	test	system	setting	endpoint	result
N#Cc1ccc(C[C@H](Nc2ncc(-c3ccc(F)cc3)o2)C(=O)N2CCc3ccccc32)cc1	FPR1	calcium mobilization, agonist	HL-60 transfected with FPR1	inactive up to 50 µM	EC50	> 50 µM
O=C(Cc1cc(C2CC2)c(-n2cc(CNC(=O)c3ccc(Cl)s3)nn2)c(C2CC2)c1)NC1(C(=O)O)CCCCC1	PYL4	phosphatase activity recovery, antagonist	–	with: HAB1, ABA 5000 nM	EC50	0.39 ± 0.063 µM
CCCCC[C@H](O)/C=C/[C@H]1C(=O)C[C@H](O)[C@@H]1C/C=C\CCCC(=O)O	PTGDR (Homo sapiens, UniProt Q13258, C130R/D319N/del234-257/H263A)	Gs protein activation, agonist, BRET	–	–	EC50	> 10 µM
O=C(O)CCCc1cc2cc(Cl)ccc2n1S(=O)(=O)c1ccc2ncsc2c1	PPARG (Homo sapiens, UniProt P37231)	receptor activation, agonist, luciferase reporter	–	serum-free, species human	EC50	0.5 µM
Cc1cccc(-c2ccc([C@@H]3[C@@H](CO)N4C(=O)CN(C(=O)Cc5ccccn5)C[C@@H]34)cc2)c1	IDE	enzyme activity, inhibitor, fluorogenic kinetic	–	with: Mca-RPPGFSAFK(Dnp)-OH substrate	EC50	3.3 µM
N#Cc1ccc(C[C@H](NC(=O)c2cc3ccccc3[nH]2)C(=O)N2CCc3ccccc32)cc1	FPR1	calcium mobilization, agonist	HL-60 transfected with FPR1	inactive up to 50 µM	EC50	> 50 µM
N=C1NC(=O)/C(=C/c2ccc(O)cc2)S1	HBL-1	–	–	0.5 µM, 120 h	viability	105%
O=C(Cc1cc(C2CC2)c(-n2cc(CNC(=O)c3cccc(Br)n3)nn2)c(C2CC2)c1)NC1(C(=O)O)CCCCC1	PYL4	phosphatase activity recovery, antagonist	–	with: HAB1, ABA 5000 nM	EC50	0.568 ± 0.067 µM
Cc1ccccc1-c1ccc([C@H]2[C@@H](CO)N3CCCCN(C(=O)Nc4cccc(F)c4)C[C@@H]23)cc1	IDE	enzyme activity, inhibitor, fluorogenic kinetic	–	with: Mca-RPPGFSAFK(Dnp)-OH substrate	EC50	3.8 µM
N[C@@H](CCC(=O)O)C(=O)O	Excitatory amino acid transporter 5 (Slc1a7, Mus musculus, UniProt Q8JZR4)	anion current, agonist, whole-cell patch clamp	mouse rod photoreceptors	-70 mV, uncaging	EC50	10.5 ± 1.73 µM
Cc1cccc(-c2ccc([C@@H]3[C@@H](CO)N4C(=O)CN(C(=O)NC5CCCCC5)C[C@@H]34)cc2)c1	IDE	enzyme activity, inhibitor, fluorogenic kinetic	–	with: Mca-RPPGFSAFK(Dnp)-OH substrate	EC50	0.67 µM
Nc1nc(O)c2nc(Br)n([C@@H]3O[C@@H]4COP(=O)(O)O[C@H]4[C@H]3O)c2n1	Cone cGMP-gated channel (Morone saxatilis, UniProt Q3I0N1+Q3I0N2)	cGMP-gated current, suction electrode	striped bass (Morone saxatilis), single cone outer segment	with: Ca2+ 0 µM	EC50	15.1 µM
OC[C@H]1O[C@H](O[C@]2(CCl)O[C@H](CCl)[C@@H](O)[C@@H]2O)[C@H](O)[C@@H](O)[C@H]1Cl	T1R2/T1R3 (Homo sapiens, UniProt Q7RTX0+Q8TE23)	receptor activation, agonist, luminescence	stably transfected cells	–	EC50	410 µM
COc1cc([C@@H]2c3cc4c(cc3[C@@H](O[C@@H]3O[C@@H]5CO[C@@H](C)O[C@H]5[C@H](O)[C@H]3O)[C@H]3COC(=O)[C@H]23)OCO4)cc(OC)c1O	HBL-1	–	–	0.1 µM, 120 h	viability	110%
COc1ccccc1-c1ccc([C@H]2[C@@H](CO)N3CCCCN(C(=O)c4cccnc4)C[C@H]23)cc1	IDE	enzyme activity, inhibitor, fluorogenic kinetic	–	with: Mca-RPPGFSAFK(Dnp)-OH substrate	EC50	13.2 µM
CCCCCCCC/C=C\CCCCCCCC(=O)NCCO	GPR119 (Homo sapiens, UniProt Q8TDV5)	agonist, cell-based	–	–	EC50	1.92 µM

Repeated from above:
SMILES	target or system	test	system	setting	endpoint	result
Cc1cccc(-c2ccc([C@@H]3[C@@H](CO)N4C(=O)CN(C(=O)Cc5ccccn5)C[C@@H]34)cc2)c1	IDE	enzyme activity, inhibitor, fluorogenic kinetic	–	with: Mca-RPPGFSAFK(Dnp)-OH substrate	EC50	3.3 µM
N#Cc1ccc(C[C@H](NC(=O)c2cc3ccccc3[nH]2)C(=O)N2CCc3ccccc32)cc1	FPR1	calcium mobilization, agonist	HL-60 transfected with FPR1	inactive up to 50 µM	EC50	> 50 µM
N=C1NC(=O)/C(=C/c2ccc(O)cc2)S1	HBL-1	–	–	0.5 µM, 120 h	viability	105%
